Results from different studies.
Each line is one published result; not all experiments were run side by side. ± marks the error that the study gave.
F2: Prothrombin (F2, Homo sapiens, UniProt P00734)
SIRT1: NAD-dependent protein deacetylase sirtuin-1 (SIRT1, Homo sapiens, UniProt Q96EB6)
UniProt Q96EB6, sequence (whole entry, looked up): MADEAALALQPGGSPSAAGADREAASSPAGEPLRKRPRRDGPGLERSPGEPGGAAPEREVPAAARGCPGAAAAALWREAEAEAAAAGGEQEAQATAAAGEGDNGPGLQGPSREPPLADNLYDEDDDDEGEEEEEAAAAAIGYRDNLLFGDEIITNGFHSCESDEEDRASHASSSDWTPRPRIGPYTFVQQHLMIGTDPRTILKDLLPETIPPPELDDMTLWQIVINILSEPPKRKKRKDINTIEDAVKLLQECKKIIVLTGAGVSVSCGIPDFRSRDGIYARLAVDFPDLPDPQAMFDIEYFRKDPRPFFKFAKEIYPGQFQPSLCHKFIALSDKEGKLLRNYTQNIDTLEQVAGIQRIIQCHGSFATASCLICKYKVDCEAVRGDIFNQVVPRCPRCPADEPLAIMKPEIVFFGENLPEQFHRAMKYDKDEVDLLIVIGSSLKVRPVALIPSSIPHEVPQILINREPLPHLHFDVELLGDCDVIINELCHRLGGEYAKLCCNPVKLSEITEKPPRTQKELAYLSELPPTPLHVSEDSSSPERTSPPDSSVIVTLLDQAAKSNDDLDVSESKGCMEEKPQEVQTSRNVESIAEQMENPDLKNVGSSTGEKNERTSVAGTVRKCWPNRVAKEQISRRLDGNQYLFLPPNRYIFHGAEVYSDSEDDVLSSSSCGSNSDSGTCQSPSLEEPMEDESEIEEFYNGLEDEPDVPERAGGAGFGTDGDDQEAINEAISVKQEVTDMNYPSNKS
UniProt Q07001, sequence (whole entry, looked up): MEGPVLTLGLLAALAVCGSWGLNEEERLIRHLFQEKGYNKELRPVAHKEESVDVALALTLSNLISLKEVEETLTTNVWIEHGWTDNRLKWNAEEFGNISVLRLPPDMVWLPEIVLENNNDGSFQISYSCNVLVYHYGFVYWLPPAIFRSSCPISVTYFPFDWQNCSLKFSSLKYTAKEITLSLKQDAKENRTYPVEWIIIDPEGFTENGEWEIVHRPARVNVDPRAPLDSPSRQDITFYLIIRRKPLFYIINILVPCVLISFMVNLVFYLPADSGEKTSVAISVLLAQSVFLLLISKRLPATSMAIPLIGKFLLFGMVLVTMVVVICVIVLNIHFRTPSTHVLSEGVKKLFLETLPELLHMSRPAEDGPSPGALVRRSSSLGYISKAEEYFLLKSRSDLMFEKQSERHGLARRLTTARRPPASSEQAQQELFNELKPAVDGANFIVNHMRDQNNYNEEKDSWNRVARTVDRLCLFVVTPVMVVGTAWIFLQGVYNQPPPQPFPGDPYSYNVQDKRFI
UniProt Q4FZB7, sequence (whole entry, looked up): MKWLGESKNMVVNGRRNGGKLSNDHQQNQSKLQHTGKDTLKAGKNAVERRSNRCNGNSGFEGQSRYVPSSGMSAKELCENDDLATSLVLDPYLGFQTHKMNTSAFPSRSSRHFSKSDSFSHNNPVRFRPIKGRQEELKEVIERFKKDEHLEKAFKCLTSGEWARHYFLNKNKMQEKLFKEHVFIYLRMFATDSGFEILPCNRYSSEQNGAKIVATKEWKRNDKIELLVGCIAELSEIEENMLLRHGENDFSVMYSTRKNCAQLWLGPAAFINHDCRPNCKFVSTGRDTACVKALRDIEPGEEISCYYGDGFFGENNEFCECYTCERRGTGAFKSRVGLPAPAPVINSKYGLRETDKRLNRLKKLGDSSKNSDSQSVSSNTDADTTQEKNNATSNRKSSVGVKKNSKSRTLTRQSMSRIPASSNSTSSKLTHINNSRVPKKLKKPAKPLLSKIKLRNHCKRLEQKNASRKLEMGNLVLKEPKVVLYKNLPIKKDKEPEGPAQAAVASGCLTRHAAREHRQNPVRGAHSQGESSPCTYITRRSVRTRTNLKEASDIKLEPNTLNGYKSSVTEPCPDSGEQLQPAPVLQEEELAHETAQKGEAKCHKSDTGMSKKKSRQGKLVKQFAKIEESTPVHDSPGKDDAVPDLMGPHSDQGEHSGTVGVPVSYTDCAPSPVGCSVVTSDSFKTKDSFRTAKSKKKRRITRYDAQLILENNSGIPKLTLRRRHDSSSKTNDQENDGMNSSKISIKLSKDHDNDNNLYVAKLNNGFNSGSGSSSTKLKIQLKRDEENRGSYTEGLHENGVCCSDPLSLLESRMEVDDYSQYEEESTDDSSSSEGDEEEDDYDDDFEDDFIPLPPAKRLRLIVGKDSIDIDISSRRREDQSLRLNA
UniProt Q9UPE1, sequence (whole entry, looked up): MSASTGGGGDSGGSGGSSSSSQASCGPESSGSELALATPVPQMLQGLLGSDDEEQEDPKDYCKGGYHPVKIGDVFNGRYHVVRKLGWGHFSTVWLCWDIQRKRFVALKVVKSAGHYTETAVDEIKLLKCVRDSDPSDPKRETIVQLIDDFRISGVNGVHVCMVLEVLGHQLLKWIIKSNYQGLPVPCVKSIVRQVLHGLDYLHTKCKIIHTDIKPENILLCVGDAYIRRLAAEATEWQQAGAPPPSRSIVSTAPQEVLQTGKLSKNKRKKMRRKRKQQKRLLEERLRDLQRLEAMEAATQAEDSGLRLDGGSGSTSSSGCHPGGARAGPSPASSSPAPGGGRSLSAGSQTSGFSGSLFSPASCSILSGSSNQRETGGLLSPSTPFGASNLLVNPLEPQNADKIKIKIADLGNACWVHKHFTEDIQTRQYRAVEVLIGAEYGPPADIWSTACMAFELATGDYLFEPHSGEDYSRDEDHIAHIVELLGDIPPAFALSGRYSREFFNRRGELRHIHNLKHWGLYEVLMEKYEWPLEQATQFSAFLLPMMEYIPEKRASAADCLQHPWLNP
UniProt P02708, sequence (whole entry, looked up): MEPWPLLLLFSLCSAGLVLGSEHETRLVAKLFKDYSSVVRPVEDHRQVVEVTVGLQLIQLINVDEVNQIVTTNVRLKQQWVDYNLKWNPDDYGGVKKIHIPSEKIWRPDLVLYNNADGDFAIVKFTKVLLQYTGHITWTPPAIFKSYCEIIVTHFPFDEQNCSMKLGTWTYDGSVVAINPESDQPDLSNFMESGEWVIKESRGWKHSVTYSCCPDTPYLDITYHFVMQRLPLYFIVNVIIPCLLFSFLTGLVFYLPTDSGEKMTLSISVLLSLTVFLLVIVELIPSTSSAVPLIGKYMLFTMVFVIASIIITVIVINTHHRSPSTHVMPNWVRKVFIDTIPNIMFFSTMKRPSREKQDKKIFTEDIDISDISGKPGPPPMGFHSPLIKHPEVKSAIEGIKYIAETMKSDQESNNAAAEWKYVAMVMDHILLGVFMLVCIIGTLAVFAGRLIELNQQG
UniProt P07510, sequence (whole entry, looked up): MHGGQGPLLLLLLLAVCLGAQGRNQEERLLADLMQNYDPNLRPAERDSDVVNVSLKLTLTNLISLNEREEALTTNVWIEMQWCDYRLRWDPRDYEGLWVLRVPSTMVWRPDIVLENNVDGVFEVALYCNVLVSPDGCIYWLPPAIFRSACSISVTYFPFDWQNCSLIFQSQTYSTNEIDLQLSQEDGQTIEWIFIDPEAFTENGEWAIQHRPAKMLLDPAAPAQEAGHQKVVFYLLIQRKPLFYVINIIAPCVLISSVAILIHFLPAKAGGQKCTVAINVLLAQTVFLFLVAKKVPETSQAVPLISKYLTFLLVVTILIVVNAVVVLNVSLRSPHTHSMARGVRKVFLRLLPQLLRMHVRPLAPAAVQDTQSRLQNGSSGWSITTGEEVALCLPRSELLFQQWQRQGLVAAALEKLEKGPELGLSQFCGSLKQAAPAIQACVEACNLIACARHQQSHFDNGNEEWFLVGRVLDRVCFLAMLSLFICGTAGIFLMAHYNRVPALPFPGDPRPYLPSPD

Compound | target | test | system | conditions | inhibition [%]
C=CCNC(=O)[C@H](CCc1ccccc1)NC(=O)[C@H](CC(=O)NCC(C)(C)C)NC(=O)CCc1ccccc1 | F2 | enzyme activity, inhibitor |  | 100 µM | 15
C[Si]1(C[C@H](CN)CC(=O)O)CCCC1 | KATP channel, human | binding, radioligand binding |  | 70 µM, with: [3H]glyburide | 5
COc1cc(NC(=O)Nc2cccc(C(=O)N3CCC(C)CC3)c2)cc(OC)c1 | Penicillin-binding protein 4 (Staphylococcus aureus, UniProt P72355) | Bocillin-FL binding, fluorescence polarization |  | 50 µM, 1 µM PBP4 | 74.9 ± 21.1
O=C1CC(c2ccccc2)Oc2c(Br)c(O)c(Br)c(O)c21 (stereo not drawn) | AMY2 (Sus scrofa, UniProt P00690) | enzyme activity, inhibitor |  | 50 µM, 30 min | 50.4
N#Cc1c(Nc2ccccc2C(F)(F)F)s[nH]c1=O | SIRT1 | enzyme activity, inhibitor |  | 10 µM | 13
C#CC(=O)Nc1ccc2nc(NCCCCCN(C)C)nc(NCCCCCCN(C)C)c2c1 | Histone-lysine N-methyltransferase SETDB1, triple Tudor domain (SETDB1, Homo sapiens, UniProt Q15047) |  |  | 0.412 µM | 39
Cc1ccc(-c2nn(-c3ccc(S(C)(=O)=O)cc3)cc2/C=N/N=C2/NC(=O)CS2)cc1 | EGFR (Homo sapiens, UniProt P00533) | kinase activity, inhibitor |  | 1 µM | 70.5
CCCCCCCCCCCCNC(=S)NCCCC[C@H](NC(=O)OCc1ccccc1)C(=O)N[C@@H](Cc1c[nH]c2ccccc12)C(=O)NC(C)C | SIRT1 | enzyme activity, inhibitor |  | 10 µM | 47
Cc1ccc(CN(C)C(=O)C(CCc2ccccc2)NC(=O)C(NC(=O)c2ccc(OCc3ccccc3)cc2)C(C)O)cc1 (stereo not drawn) | trypsin | enzyme activity, inhibitor |  | 100 µM | 2
CN(C)C/C=C/C(=O)Nc1ccc2nc(NCCCCCN(C)C)nc(NCCCCCCN(C)C)c2c1 | KMT5B (Homo sapiens, UniProt Q4FZB7) | enzyme activity, inhibitor, radiometric |  | 50 µM | 86
CC(=O)C12NC(C)(C)CC1(C)C(=O)C1=C2c2c(c3c4n2C(C)(C)CC2=C4C4(CC(C)(C)NC(C)(C4)C2=O)CC3(C)C)C(=O)C(C)(C)N1 (single isomer, unassigned; (-)) | Scn9a (Rattus norvegicus, UniProt O08562) | ion current, antagonist, whole-cell patch clamp | HEK293T | 10 µM | 2.39 ± 0.09
N#Cc1ccc(NC(=O)Nc2ccccc2-c2ccccc2)cc1 | SRPK3 (Homo sapiens, UniProt Q9UPE1) | binding, KINOMEscan competitive binding |  | concentration not given | 32
CCCCCCCCCCCCNC(=S)NCCCC[C@H](NC(=O)OCc1ccccc1)C(=O)N[C@@H](Cc1ccc(O)c([N+](=O)[O-])c1)C(=O)N[C@@H](CCCNC(=N)N)C(N)=O | SIRT1 | enzyme activity, inhibitor |  | 1 µM | 56
O=C1c2sc(-c3ccc(N4CCC(CO)CC4)nc3F)nc2CCN1c1cccnc1 | CHRNA1/CHRNG/CHRND (Homo sapiens, UniProt P02708+P07510+Q07001) | radioligand binding, antagonist |  | 1 µM | -4
C[C@@H](O)[C@H](NC(=O)c1ccc(OCc2ccccc2)cc1)C(=O)N[C@@H](CCc1ccccc1)C(=O)NCc1ccccc1Cl | F2 | enzyme activity, inhibitor |  | 100 µM | 29
CN(Cc1ccc(/C=C/C(=O)NO)cc1)CC12CC3CC(CC(C3)C1)C2 | human 5-HT3 receptor | antagonist radioligand binding |  | 0.05 µM | 1
O=C1CO[C@H](CNC(=O)C2(c3ccc(Cl)cc3)CC2)CN1C1Cc2ccccc2C1 | CMKLR1 (Homo sapiens, UniProt Q99788) | β-arrestin recruitment, antagonist |  | 1 µM | -2
CC1Cc2ccccc2N1C(=O)CN1CCN(c2ccccc2)CC1 (stereo not drawn) | HTR1E (Homo sapiens, UniProt P28566) | radioligand binding |  | concentration not given, with: [3H]5-HT | -2.8

A few entries again:
Compound | target | test | system | conditions | inhibition [%]
C[C@@H](O)[C@H](NC(=O)c1ccc(OCc2ccccc2)cc1)C(=O)N[C@@H](CCc1ccccc1)C(=O)NCc1ccccc1Cl | F2 | enzyme activity, inhibitor |  | 100 µM | 29
CN(Cc1ccc(/C=C/C(=O)NO)cc1)CC12CC3CC(CC(C3)C1)C2 | human 5-HT3 receptor | antagonist radioligand binding |  | 0.05 µM | 1
